Experimental data pooled from the literature.
Values joined by “and” are separate records of one study, mostly repeats; a detail may differ. ± gives the spread as reported. Values after ≈ are worked out from the molar mass of the structure shown.

| SMILES | target or system | assay | system | setting | scale | endpoint | value |
| --- | --- | --- | --- | --- | --- | --- | --- |
| Cc1cc(NC(=O)c2cccc(NC(=O)/C(C#N)=C/C(C)(C)C)c2)ccc1Nc1nccc(-c2cccnc2)n1 | HEK293 AP1 reporter cells | AP-1 reporter gene, inhibitor |  | 10 µM, 6 h, unit not given, together with: PMA | reference: PMA alone | reporter activity | 0.642 |
| O=C(C[Se]C(=O)c1cc2ccccc2[nH]1)Nc1cccc(C(F)(F)F)c1 | NCI60 CNS cancer panel | five-dose screen |  |  |  | GI50 | 1470 nM |
| CCN(CC)CCNC(=S)Nc1ccc2nc(N3CCN(CC)CC3)cc(C)c2c1 | U2OS SSA-GFP reporter | single-strand annealing, flow cytometry |  | 20 µM |  | GFP-positive cells | 4.08% |
| C=C1C(=O)OC2C1CCC(C)(O)C13C=CC(C)(C21)C1(C3)C(=O)OC2C3C(C)C(=O)CC3C(=C)CC(OC(C)=O)C21 (stereo not shown) | AML12 | MitoSOX flow cytometry |  | concentration not given, together with: palmitate/oleate |  | mitochondrial ROS | decreased |
| O=C(C[Se]C(=O)c1ccccc1Nc1ccccc1)Nc1cccc(C(F)(F)F)c1 | NCI60 CNS cancer panel | five-dose screen |  |  |  | GI50 | 1760 nM |
| C=C1C(=O)OC2C1CCC(C)(O)C13C=CC(C)(C21)C1(C3)C(=O)OC2C3C(C)=CCC3C(C)(O)CC(O)C21 (stereo not shown) | AML12 mouse hepatocytes | lipid accumulation, Nile Red staining |  | maximum safe concentration, 24 h, together with: palmitic acid/oleic acid |  | maximum inhibition | 33.8 ± 2.59% |
| Cc1cc(NC(=O)C23CC4CC(C2)CC(n2cnc([N+](=O)[O-])n2)(C4)C3)no1 | Trypanosoma cruzi | reporter mRNA translation, inhibitor, item: Renilla luciferase mRNA | cell-free extract | concentration not given, test 1 | reference: positive over negative control | translation activity | 104% and 114% |
| CCCCCCC(=O)[O][Pt]([NH2])([NH2])([Cl])([Cl])[O]C(=O)CCC(C)C1CCC2C3CCC4CC(O)CCC4(C)C3CCC12C (stereo not shown) | PC-3 | Western blot |  | 1 to 2 µM, 48 h, together with: cisplatin 2 µM |  | Bax protein level | increased |
| CN1CCCNC(=O)c2cccc(c2)C(=O)NCCCN(C)CCCNc2cccc3c2C(=O)c2cccc(c2C3=O)NCCC1 | SAS | RNA-Seq, item: PAQR6 mRNA |  | 1 µM, 6 h | reference: untreated cells | log2 fold change | 3.68 |
| CC(C)c1ccc(N(C)c2ccc3c(c2)OCC[C@H]3CNc2cnccc2C(=O)O)cc1 | NCI-H661 | cell viability, CellTiter-Glo |  | 7 days |  | IC50 | 9.73 nM |
| Cn1ncc2cc(-c3cncc(Cl)c3N3CCC4(CCNC4=O)CC3)ccc21 | LS174T | gene expression, microarray, item: PPFIA4 mRNA |  | concentration not given, 4 h | reference: untreated cells | log2 fold change | 1.98 |
| CCCCN1C(=O)c2cccc3c(NCCCCCCN4CCOCC4)ccc(c23)C1=O | BHK-21 | confocal colocalization |  | 0.2 µM, together with: ER-Tracker Red 0.3 µM |  | Pearson's coefficient | 0.19 ± 0.04 |
| Cc1cc(Cl)cc(-c2ccnc3cc(CN4C(=O)C5C(C4=O)C5(C)C)sc23)c1C[C@@H]1CNCCO1 (stereo partly shown) | CHP-212 resistant | PI flow cytometry |  | 0.1 µM, 24 h |  | G1 phase cells | 69.9% |
| COc1cc(N2CCOCC2)ccc1Nc1ncc(Cl)c(Nc2ccccc2NS(C)(=O)=O)n1 | PC-9 del19/T790M/C797S | PI flow cytometry |  | above 0.3 µM, 18 h |  | G2/M phase cells | increased |
| COc1cc(N2CCN(C(=O)C3CCCN3)CC2)ccc1Nc1ncc(Cl)c(Nc2ccccc2P(C)(C)=O)n1 (stereo not shown) | Ba/F3 EML4-ALK | flow cytometry |  | concentration not given, 0.5 h |  | early apoptotic cells | 3.41% and 3.33% and 3.25% |
| COc1cccc(OC)c1-c1cc(C(=O)NC2(C(=O)O)C3CC4CC(C3)CC2C4)nn1-c1ccc(C(=O)N(C)CCOCCOCCN(C)C(=O)[C@H](CCCCNC(=O)[C@H](CC(C)C)NC(=O)C2OC2C(=O)O)NC(=O)CN2CCN(CC(=O)[O-])CCN(CC(=O)[O-])CCN(CC(=O)[O-])CC2)cc1C(C)C.[177Lu+3] (mixture of isomers) | HT-29 |  |  | concentration not given, 120 min | reference: added activity | surface-bound fraction | 0.67 ± 0.05% |
| CCc1c(C)c2ccc(OC(C)C)c(C)c2oc1=O | PC-3 | cell growth or viability, MTT |  | 500 µg/mL |  | viability | 2.47% |
| Cn1c(=O)n(C2CCC(=O)NC2=O)c2ccc(C3CCN(CC(=O)Nc4cccc(CS(=O)(=O)N5CC[C@H](Nc6cccc(-c7sc(C(=O)O)c(OCC(=O)O)c7Cl)c6)CC5(C)C)c4)CC3)cc21 (stereo partly shown) | B16-F10 | HTRF, item: phospho-STAT1 Tyr701 |  | 0.014 µM, together with: IFN-γ | reference: min-max normalised | pSTAT1 level | 29.2% and 21% and 29.3% and 26.7% and 19.2% and 20% |
| CNS(=O)(=O)Nc1nccc(Cc2c(C)c3ccc(Oc4ncccc4F)cc3oc2=O)c1F | NCI-H661 | cell viability |  | 7 days |  | IC50 | > 1000 nM |

| SMILES | target or system | assay | system | setting | scale | endpoint | value |
| --- | --- | --- | --- | --- | --- | --- | --- |
| CC[C@H](C)[C@@H]1NC(=O)[C@H](CCSC)NC(=O)[C@H](Cc2c[nH]c3ccccc23)NC(=O)[C@H](CC(N)=O)NC(=O)[C@@H](NC(=O)CCOCCOCCOCCNC(=O)CN2CCN(CC(=O)O)CCN(CC(=O)O)CC2)CSSC[C@@H](C(=O)O)NC(=O)[C@H](CCC(=O)O)NC(=O)[C@H](CCCCN)NC(=O)[C@H](CC(N)=O)NC1=O [gallium-68 labelled] | activated human PBMCs |  |  | 60 min |  | cell uptake | 3.34 ± 0.38% |
| C=CC(=O)N1[C@@H](c2ccc3c(c2)OCO3)c2[nH]c3ccccc3c2C[C@H]1C(=O)NC1CC1 | rat DRG neurons |  |  | 30 µM, 48 h, together with: vincristine 40 nM |  | mean neuron degeneration | 16.5% |
| COC(=O)c1cc(NC2=NC(=O)C(=Cc3ccc(N(C)C)cc3)S2)ccc1OC(C)=O | MCF7 | item: RNF168 mRNA |  | 0.81 µM (IC50), 24 h | reference: DMSO | fold change | 0.26 |
| CCN(CC)CCCCCCNc1cc(OC)cc2c(C)ccnc12.Cc1ccc(S(=O)(=O)O)cc1 | Trypanosoma cruzi | reporter mRNA translation, inhibitor, item: Renilla luciferase mRNA | cell-free extract | concentration not given | reference: positive over negative control | translation activity | 101% and 148% |
| Cc1ccc(-n2cc(CSc3nc4ccccc4n3Cc3cn(-c4ccc(C)cc4)nn3)nn2)cc1 | MDA-MB-231 | MTT |  | 62.5 ppm |  | viability | 12.2% |
| COC(=O)c1cc(NC2=NC(=O)C(=Cc3ccc(C)cc3)S2)ccc1OC(C)=O | MCF7 | GC-MS, item: L-Threonine |  | 1 µM | reference: DMSO | metabolite level | -1.01 fold change |
| CCOc1cncc(-c2ccc(NC(=O)C3(c4ccnc(NS(=O)(=O)C5CC5)n4)CCOCC3)nc2)n1 | KU-19-19 | cell growth or viability, ATP luminescence |  | 72 h |  | IC50 | 44 nM |
| CCC(CC)n1c(Cc2ccco2)nc2cc(C(=O)N[C@@H](CC(=O)O)c3ccccc3)ccc21 | H9c2 |  |  | concentration not given, 48 h, together with: ISO and MCM |  | LDH release | decreased |
| COc1cc(/C=C/C(=O)/C=C(O)/C=C/c2ccc(OCC(=O)N3CCOCCOCCOCCOCC3)c(OC)c2)ccc1OCC(=O)N1CCOCCOCCOCCOCC1 | COS-7 | cell growth or viability, SRB |  | 25 µM |  | inhibition | 100% |
| CCN(CC)CC(=O)Nc1cccc(-n2cc(-c3ccc4ccc(-c5cn(-c6cccc(NC(=O)CN(CC)CC)c6)nn5)cc4c3)nn2)c1 | RCC4 | PCR angiogenesis array, item: KDR |  | 5 x IC50, 2 h, normoxia | reference: untreated | fold regulation | 1.02 |
| O=C(CCCCCOc1ccc2ccccc2c1)N[C@@H](CO)C[C@@H](O)c1ccc(-c2ccccc2)cc1 | HeLa | CERT activity, HPLC-MS/MS lipidomics, item: lactosylceramide 16 |  | 1 µM, 24 h, not cell-number normalised |  | lactosylceramide level | 22700 pmol/sample and 26300 pmol/sample and 24000 pmol/sample |
| COc1cc(C(=O)N2CC[C@@H](O)[C@@H](N)C2)cc2nc(-c3cc4cccnc4n3CC3CC3)n(C)c12 | human neutrophils | protein citrullination, inhibitor, flow cytometry, item: citrullinated proteins |  | 10 µM, together with: ionomycin |  | inhibition | 28.2% and 24.5% and 50.9% and 54% |
| O=C1CCCC2=C1C(c1c[nH]c3ccccc13)c1cc(Br)ccc1O2 (stereo not shown) | 3T3-L1 | cell growth or viability, MTT |  | 72 h |  | IC20 | 104 µg/mL (≈ 264 µM) |
| CN1CCN(C(=O)c2ccc(-c3cc4c(N5CCC[C@H](C(=O)NCc6ccc(OC(F)(F)F)cc6)C5)ncnc4[nH]3)cc2)CC1 | KARPAS-299 | cell growth or viability, MTT |  | 0.0016 µg/mL, 72 h |  | inhibition | 17% |
| COc1ccc(N(C2CCCCC2)S(=O)(=O)C2CC3OC2C(c2ccc(O)cc2)=C3c2ccc(O)cc2)cc1 (stereo not shown) | MCF7 3xERE-luc, steroid-deprived | ERE luciferase reporter, agonist |  |  | reference: vehicle | Emax | -7.03% |
| CO[C@@H]1[C@@H](OC(=O)c2ccc(C)[nH]2)[C@@H](O)[C@H](Oc2ccc3c(O)c(NC(=O)c4c[nH]c(C(=O)Nc5c(O)c6ccc(O[C@@H]7OC(C)(C)[C@H](OC)[C@@H](OC(=O)c8ccc(C)[nH]8)[C@H]7O)c(C)c6oc5=O)c4C)c(=O)oc3c2C)OC1(C)C | HaCaT Tet-On cells, doxycycline-induced |  |  | 15 µM |  | cell number | 6% |
| Cc1ncsc1-c1ccc(C(C)NC(=O)C2CC(O)CN2C(=O)C(NC(=O)CCCCCCCCCCN2CCCC(Nc3ncc(Cl)c(Nc4ccccc4S(=O)(=O)C(C)C)n3)C2)C(C)(C)C)cc1 (stereo not shown) | 22Rv1 | RNA-seq, item: ZBTB48 mRNA |  | concentration not given | reference: DMSO | log2 fold change | -1.59 |
| Cc1cc(NC2CCN(C)CC2)ccc1-c1cc2c(N3CCC[C@H](C(=O)NCc4ccc(OC(F)(F)F)cc4)C3)ncnc2[nH]1 | KARPAS-299 | cell growth or viability, MTT |  | 0.04 µg/mL, 72 h |  | inhibition | 70.9% |

Repeated from above:
| SMILES | target or system | assay | system | setting | scale | endpoint | value |
| --- | --- | --- | --- | --- | --- | --- | --- |
| COc1cc(N2CCN(C(=O)C3CCCN3)CC2)ccc1Nc1ncc(Cl)c(Nc2ccccc2P(C)(C)=O)n1 (stereo not shown) | Ba/F3 EML4-ALK | flow cytometry |  | concentration not given, 0.5 h |  | early apoptotic cells | 3.41% and 3.33% and 3.25% |
| Cc1ccc(-n2cc(CSc3nc4ccccc4n3Cc3cn(-c4ccc(C)cc4)nn3)nn2)cc1 | MDA-MB-231 | MTT |  | 62.5 ppm |  | viability | 12.2% |
| COC(=O)c1cc(NC2=NC(=O)C(=Cc3ccc(N(C)C)cc3)S2)ccc1OC(C)=O | MCF7 | item: RNF168 mRNA |  | 0.81 µM (IC50), 24 h | reference: DMSO | fold change | 0.26 |
| COc1cccc(OC)c1-c1cc(C(=O)NC2(C(=O)O)C3CC4CC(C3)CC2C4)nn1-c1ccc(C(=O)N(C)CCOCCOCCN(C)C(=O)[C@H](CCCCNC(=O)[C@H](CC(C)C)NC(=O)C2OC2C(=O)O)NC(=O)CN2CCN(CC(=O)[O-])CCN(CC(=O)[O-])CCN(CC(=O)[O-])CC2)cc1C(C)C.[177Lu+3] (mixture of isomers) | HT-29 |  |  | concentration not given, 120 min | reference: added activity | surface-bound fraction | 0.67 ± 0.05% |
| O=C(CCCCCOc1ccc2ccccc2c1)N[C@@H](CO)C[C@@H](O)c1ccc(-c2ccccc2)cc1 | HeLa | CERT activity, HPLC-MS/MS lipidomics, item: lactosylceramide 16 |  | 1 µM, 24 h, not cell-number normalised |  | lactosylceramide level | 22700 pmol/sample and 26300 pmol/sample and 24000 pmol/sample |
